Experimental data pooled from the literature.
Compare with care: the assays were run in different laboratories. Numbers after ± are the reported error.

| SMILES | assay | system | setting | tissue uptake |
| --- | --- | --- | --- | --- |
| OCc1cn(Cc2ccc(-c3noc(-c4ccc(OCC[18F])c(C(F)(F)F)c4)n3)cc2)nn1 | – | female Lewis rat, spleen | intravenous, 120 min | 1.14 ± 0.1 %ID/g |
| NC12CNCCNCC(NCc3ccc(CNC(=O)CCCC(=O)NCc4ccc(-c5nncnn5)cc4)cc3)(CNCCNC1)CNCCNC2.[64Cu+2] | – | athymic nude mice SW1222 xenograft, muscle | 4 h post injection, 24 h accumulation interval, with: huA33-TCO pretargeting | 0.37 ± 0.07 %ID/g |
| CC(C)[C@H](NC(=O)[C@@H]1CCCN1C(=O)[C@H](CCCNC(=N)N)NC(=O)[C@H](CS)NC(=O)[C@H](Cc1c[nH]c2ccccc12)NC(=O)[C@H](CCCNC(=N)N)NC(=O)[C@@H](Cc1ccccc1)NC(=O)[C@H](Cc1c[nH]cn1)NC(=O)[C@H](CCC(=O)O)NC(=O)[C@H](CS)NC(=O)[C@H](CS)NC(=O)CNC(=O)[C@@H]1CC(=O)N[C@@H](CCCNC(=N)N)C(=O)NCC(=O)N[C@@H](CC(=O)O)C(=O)N[C@H](Cc2ccc(O)cc2)C(=O)N1)C(N)=O [technetium-99m labelled] | – | C57 mouse, female, B16/F1 melanoma, stomach | intravenous, 0.037 MBq, 0.5 h | 3.87 ± 1 %ID/g |
| CCCC[C@@H]1NC(=O)[C@@H](NC(=O)[C@H](CCC(=O)O)NC(=O)CNC(=O)CN2CCN(CC(=O)O)CCN(CC(=O)O)CCN(CC(=O)O)CC2)CCCCNC(=O)C[C@@H](C(N)=O)NC(=O)[C@H](C(C)C)NC(=O)[C@@H]2CCCN2C(=O)[C@H](CCCNC(=N)N)NC(=O)CNC(=O)[C@H](Cc2c[nH]c3ccccc23)NC(=O)[C@H](CCCNC(=N)N)NC(=O)[C@@H](Cc2ccccc2)NC(=O)[C@H](Cc2c[nH]cn2)NC(=O)[C@H](CCC(=O)O)NC1=O [gallium-67 labelled] | – | C57 mice with B16/F1 melanoma, pancreas | intravenous, 0.037 MBq, 4 h | 0.07 ± 0.05 %ID/g |
| CN1C(=O)[C@@H](Cc2ccc(O)c(I)c2)NC(=O)CNC(=O)[C@H](Cc2ccc3ccccc3c2)NC(=O)[C@H](CCCNC(=N)N)NC(=O)[C@H]1CCCNC(=O)c1ccc(CNC(=O)CN2CCN(CC(=O)O)CCN(CC(=O)O)CCN(CC(=O)O)CC2)cc1 [lutetium-177 labelled] | refers to: 177Lu radioactivity | female CB-17 SCID mice, Daudi xenograft, spleen | intravenous, 0.16 nmol per mouse, 1 h | 1.8 ± 0.3 %ID/g |
| O=C([O-])CN1CCN(CC(=O)[O-])CCN(CC(=O)NCCc2ccc3c(c2)C2C=CCC2C(c2cc4c(cc2Br)OCO4)N3)CCN(CC(=O)[O-])CC1.[111In+3] (centres unmarked) | – | mouse, Hec50 endometrial tumour, brain | 4 h post injection | 0.05 ± 0.02 %ID/g |
| CCCC[C@H](NC(=O)CNC(=O)CNC(=O)CN1CCN(CC(=O)O)CCN(CC(=O)O)CCN(CC(=O)O)CC1)C(=O)N[C@H]1CC(=O)NCCCC[C@@H](C(N)=O)NC(=O)[C@H](Cc2c[nH]c3ccccc23)NC(=O)[C@H](CCCNC(=N)N)NC(=O)[C@@H](Cc2ccccc2)NC(=O)[C@H](Cc2c[nH]cn2)NC1=O [copper-64 labelled] | – | C57 mouse B16/F1 melanoma, heart | 4 h | 1.45 ± 0.13 %ID/g |
| O=C(O)C1CN(Cc2ccc(-c3noc(-c4ccc(OCC[18F])c(C(F)(F)F)c4)n3)cc2)C1 | – | male Sprague-Dawley rat, muscle | intravenous, 5 min | 0.121 ± 0.013 %ID/g |

Some of these lines once more:
| SMILES | assay | system | setting | tissue uptake |
| --- | --- | --- | --- | --- |
| CCCC[C@H](NC(=O)CNC(=O)CNC(=O)CN1CCN(CC(=O)O)CCN(CC(=O)O)CCN(CC(=O)O)CC1)C(=O)N[C@H]1CC(=O)NCCCC[C@@H](C(N)=O)NC(=O)[C@H](Cc2c[nH]c3ccccc23)NC(=O)[C@H](CCCNC(=N)N)NC(=O)[C@@H](Cc2ccccc2)NC(=O)[C@H](Cc2c[nH]cn2)NC1=O [copper-64 labelled] | – | C57 mouse B16/F1 melanoma, heart | 4 h | 1.45 ± 0.13 %ID/g |
